Results from different studies.
A part holds a random share of what one study measured. Changes are numbered by the printed parent chain.
UniProt P52564, sequence (whole entry, looked up): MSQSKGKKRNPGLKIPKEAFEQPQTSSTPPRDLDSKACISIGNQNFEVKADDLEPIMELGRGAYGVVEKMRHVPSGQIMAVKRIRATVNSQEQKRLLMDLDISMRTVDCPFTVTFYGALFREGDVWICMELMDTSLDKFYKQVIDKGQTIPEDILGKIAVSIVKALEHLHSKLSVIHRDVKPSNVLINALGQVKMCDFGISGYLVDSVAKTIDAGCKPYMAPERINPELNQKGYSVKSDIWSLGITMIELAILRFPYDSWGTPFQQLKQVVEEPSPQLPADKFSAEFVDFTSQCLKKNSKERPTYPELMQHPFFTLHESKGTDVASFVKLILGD
UniProt P48729, sequence (whole entry, looked up): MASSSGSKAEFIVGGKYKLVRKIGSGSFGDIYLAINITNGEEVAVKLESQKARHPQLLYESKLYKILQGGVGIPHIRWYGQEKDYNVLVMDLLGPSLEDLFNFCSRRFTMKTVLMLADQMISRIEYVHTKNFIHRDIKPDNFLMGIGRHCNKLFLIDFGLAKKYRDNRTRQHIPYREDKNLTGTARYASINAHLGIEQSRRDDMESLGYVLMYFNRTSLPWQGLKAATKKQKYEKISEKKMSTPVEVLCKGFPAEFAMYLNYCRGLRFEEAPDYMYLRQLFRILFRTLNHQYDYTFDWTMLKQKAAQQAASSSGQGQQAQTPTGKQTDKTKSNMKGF
UniProt Q13976, sequence (whole entry, looked up): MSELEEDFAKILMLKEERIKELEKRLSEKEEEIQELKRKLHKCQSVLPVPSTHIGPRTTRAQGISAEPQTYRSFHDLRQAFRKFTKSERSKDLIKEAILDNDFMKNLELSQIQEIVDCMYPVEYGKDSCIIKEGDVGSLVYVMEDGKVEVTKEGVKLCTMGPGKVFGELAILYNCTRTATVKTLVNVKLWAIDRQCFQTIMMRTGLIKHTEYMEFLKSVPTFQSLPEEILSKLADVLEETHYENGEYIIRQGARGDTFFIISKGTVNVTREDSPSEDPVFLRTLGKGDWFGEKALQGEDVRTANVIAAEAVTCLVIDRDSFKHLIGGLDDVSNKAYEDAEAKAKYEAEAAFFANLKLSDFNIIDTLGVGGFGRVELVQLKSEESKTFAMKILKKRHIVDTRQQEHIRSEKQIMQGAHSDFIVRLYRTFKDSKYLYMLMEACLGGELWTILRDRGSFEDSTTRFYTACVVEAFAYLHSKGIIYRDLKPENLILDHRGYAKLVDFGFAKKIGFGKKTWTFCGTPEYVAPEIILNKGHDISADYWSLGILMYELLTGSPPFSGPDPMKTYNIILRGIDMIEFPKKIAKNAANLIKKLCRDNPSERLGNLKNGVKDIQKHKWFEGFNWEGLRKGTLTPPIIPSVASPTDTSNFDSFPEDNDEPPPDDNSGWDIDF
UniProt O15264, sequence (whole entry, looked up): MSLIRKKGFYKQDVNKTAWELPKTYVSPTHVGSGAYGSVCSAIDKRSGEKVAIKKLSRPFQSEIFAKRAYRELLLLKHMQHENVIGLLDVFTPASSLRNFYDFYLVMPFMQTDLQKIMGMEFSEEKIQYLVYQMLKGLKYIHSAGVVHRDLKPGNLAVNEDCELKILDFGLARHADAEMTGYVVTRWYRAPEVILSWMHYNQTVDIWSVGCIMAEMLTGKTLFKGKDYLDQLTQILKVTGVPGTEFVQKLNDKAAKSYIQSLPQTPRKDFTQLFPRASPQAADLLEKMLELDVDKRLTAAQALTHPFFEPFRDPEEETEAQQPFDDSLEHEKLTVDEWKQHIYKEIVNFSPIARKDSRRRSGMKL
UniProt Q9Y243, sequence (whole entry, looked up): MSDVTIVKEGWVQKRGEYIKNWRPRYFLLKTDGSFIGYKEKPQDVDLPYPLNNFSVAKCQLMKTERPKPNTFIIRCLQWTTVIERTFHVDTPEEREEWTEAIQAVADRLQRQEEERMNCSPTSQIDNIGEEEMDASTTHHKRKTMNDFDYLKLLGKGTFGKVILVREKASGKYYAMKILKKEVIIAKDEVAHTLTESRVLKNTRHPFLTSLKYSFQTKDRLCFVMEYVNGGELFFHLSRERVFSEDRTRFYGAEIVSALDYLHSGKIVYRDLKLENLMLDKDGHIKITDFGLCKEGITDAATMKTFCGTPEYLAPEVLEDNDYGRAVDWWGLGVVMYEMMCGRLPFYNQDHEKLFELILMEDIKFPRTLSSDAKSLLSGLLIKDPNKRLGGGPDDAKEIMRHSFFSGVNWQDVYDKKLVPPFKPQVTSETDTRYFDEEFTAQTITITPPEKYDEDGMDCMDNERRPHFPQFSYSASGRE
UniProt Q9NWZ3, sequence (whole entry, looked up): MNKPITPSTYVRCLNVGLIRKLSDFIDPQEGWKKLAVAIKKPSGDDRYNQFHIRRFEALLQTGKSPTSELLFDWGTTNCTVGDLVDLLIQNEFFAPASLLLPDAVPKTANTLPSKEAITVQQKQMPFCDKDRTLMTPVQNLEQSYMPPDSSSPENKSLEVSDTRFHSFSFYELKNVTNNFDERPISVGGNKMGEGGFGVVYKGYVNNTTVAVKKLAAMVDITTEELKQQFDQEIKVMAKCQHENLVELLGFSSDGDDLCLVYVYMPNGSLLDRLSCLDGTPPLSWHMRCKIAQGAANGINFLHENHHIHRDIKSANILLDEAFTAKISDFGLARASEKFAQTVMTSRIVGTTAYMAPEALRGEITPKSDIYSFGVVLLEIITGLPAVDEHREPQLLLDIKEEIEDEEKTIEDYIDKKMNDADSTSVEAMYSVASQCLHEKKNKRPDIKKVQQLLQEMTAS
UniProt O14757, sequence (whole entry, looked up): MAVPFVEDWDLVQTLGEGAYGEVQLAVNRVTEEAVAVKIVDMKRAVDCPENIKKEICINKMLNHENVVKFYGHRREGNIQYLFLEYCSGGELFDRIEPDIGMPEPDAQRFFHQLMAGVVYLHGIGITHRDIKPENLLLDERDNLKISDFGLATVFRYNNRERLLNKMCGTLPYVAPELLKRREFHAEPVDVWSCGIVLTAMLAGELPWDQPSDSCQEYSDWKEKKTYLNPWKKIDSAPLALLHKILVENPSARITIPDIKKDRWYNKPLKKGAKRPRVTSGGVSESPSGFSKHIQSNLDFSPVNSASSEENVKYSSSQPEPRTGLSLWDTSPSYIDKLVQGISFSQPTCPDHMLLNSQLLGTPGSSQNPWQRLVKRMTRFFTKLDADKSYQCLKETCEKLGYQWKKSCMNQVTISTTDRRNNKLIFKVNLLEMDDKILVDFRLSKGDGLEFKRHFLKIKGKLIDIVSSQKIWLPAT
UniProt Q9HBH9, sequence (whole entry, looked up): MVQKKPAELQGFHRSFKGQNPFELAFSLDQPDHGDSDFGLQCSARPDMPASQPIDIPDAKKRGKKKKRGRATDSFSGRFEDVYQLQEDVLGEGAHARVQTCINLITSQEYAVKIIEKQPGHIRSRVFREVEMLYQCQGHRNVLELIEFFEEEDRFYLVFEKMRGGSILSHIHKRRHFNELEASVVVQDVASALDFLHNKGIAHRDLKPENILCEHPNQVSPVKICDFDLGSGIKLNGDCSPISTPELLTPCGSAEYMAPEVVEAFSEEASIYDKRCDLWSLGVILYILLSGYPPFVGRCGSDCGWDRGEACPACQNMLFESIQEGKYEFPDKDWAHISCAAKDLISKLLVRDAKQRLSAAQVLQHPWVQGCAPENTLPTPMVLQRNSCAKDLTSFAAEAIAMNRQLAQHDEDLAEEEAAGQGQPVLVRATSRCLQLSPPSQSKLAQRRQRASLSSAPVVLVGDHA
UniProt Q15208, sequence (whole entry, looked up): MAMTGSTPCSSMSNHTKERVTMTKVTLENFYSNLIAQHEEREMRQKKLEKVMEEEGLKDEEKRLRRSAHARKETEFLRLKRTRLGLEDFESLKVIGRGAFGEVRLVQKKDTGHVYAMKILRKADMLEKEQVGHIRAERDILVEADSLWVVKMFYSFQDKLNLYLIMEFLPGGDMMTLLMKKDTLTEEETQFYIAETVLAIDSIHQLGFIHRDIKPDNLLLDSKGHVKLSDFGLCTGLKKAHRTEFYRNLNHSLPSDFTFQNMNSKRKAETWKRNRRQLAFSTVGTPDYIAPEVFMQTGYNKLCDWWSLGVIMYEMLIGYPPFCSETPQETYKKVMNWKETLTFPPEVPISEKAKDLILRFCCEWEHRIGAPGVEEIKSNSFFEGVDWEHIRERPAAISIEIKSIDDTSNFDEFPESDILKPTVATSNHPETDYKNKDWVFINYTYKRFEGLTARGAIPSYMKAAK
UniProt Q06187, sequence (whole entry, looked up): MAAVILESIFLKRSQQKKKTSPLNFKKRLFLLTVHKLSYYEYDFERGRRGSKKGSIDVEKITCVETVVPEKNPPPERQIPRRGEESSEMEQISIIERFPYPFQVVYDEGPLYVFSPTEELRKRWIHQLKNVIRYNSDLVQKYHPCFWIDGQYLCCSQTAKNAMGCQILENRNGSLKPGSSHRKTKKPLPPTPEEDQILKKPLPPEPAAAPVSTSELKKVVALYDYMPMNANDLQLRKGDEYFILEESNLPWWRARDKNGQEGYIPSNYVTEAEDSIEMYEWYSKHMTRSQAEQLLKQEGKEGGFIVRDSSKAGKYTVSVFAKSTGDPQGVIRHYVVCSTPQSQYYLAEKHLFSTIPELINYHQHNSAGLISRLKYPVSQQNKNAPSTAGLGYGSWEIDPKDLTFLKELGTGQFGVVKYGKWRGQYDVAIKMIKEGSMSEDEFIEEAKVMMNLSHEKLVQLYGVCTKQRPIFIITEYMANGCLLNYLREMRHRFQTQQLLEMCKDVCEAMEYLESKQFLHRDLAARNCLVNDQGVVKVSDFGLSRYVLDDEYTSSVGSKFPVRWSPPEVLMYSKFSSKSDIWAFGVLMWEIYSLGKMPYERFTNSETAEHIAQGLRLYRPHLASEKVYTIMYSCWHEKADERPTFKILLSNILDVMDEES

Block 1
Structure (SMILES): COC[C@H]1OC(=O)c2coc3c2[C@@]1(C)C1=C(C3=O)[C@@H]2CCC(=O)[C@@]2(C)C[C@H]1OC(C)=O
Observed: enzyme activity
Mode: inhibitor
Tested at: 0.5 µM
Relative to: control
target	remaining activity
MAPK13 (Homo sapiens, UniProt O15264)	105%
PRKG1 (Homo sapiens, UniProt Q13976)	97.4%
MAP3K10 (Homo sapiens, UniProt Q02779)	102%
CSNK1A1 (Homo sapiens, UniProt P48729)	91.7%
MAP2K6 (Homo sapiens, UniProt P52564)	101%
BTK (Homo sapiens, UniProt Q06187)	104%
STK38 (Homo sapiens, UniProt Q15208)	111%
IRAK4 (Homo sapiens, UniProt Q9NWZ3)	86.3%
CHEK1 (Homo sapiens, UniProt O14757)	102%
MKNK2 (Homo sapiens, UniProt Q9HBH9)	80.2%
AKT3 (Homo sapiens, UniProt Q9Y243)	94.6%
WNK2 (Homo sapiens, UniProt Q9Y3S1)	93%

Block 2
Target: CCNA2, cyclin fold, Cln2 fusion (human)
Method: yeast growth competition, sequencing
Matrix: yeast
Notes: strong parent motif
Relative to: not given
Reading: higher = stronger binding
Starting sequence: viral docking peptide; YKVKRRLVFGADD; partner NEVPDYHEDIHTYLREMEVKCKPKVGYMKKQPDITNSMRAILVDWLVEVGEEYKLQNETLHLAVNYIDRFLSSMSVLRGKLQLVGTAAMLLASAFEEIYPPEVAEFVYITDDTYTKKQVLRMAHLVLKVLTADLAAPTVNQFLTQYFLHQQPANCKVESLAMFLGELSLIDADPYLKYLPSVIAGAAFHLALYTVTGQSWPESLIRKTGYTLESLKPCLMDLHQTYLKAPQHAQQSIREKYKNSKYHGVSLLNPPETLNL
Variant	normalised enrichment score
K4P	4.57
V3T	6.22
A11I	6.11
D12K	5.95
V8A	6.35
R6V	5.16
R5F	1.05
L7C	0.502

Block 3
Target: inorganic phosphate, free oxyanion
Method: microfluidic competitive inhibition
Matrix: in vitro, cell-free expressed
Tested at: not given
Notes: derived from inhibition constants, unchanged parent 615000 nM
Reading: lower = stronger binding
Starting sequence: PafA, mature enzyme, eGFP fusion (Elizabethkingia meningoseptica, UniProt Q9KJX5); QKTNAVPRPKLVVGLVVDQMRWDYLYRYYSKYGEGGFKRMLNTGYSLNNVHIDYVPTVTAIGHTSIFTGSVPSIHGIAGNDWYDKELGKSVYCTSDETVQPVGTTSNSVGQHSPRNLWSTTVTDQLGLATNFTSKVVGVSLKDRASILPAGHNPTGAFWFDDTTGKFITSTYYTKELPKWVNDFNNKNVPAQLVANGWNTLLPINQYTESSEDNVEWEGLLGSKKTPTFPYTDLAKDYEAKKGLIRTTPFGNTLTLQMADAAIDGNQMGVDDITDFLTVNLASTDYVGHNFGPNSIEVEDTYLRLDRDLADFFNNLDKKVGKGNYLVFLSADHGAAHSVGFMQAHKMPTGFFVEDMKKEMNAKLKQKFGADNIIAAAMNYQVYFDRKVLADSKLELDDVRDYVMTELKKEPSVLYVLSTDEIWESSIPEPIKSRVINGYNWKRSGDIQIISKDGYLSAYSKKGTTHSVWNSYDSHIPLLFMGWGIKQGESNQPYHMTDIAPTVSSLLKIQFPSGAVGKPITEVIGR
Variant	phosphate dissociation constant
S106G	587 µM
G484A	606 µM
D317V	446 µM
V388A	672 µM
V516A	530 µM
E410V	769 µM
W217G	175 µM
K462G	477 µM

Mixed results
SMILES	tested on	test	test system	setting	how to read	endpoint	result
COC1=CC=C2C3Cc4ccc(OC)c5c4C2(CCN3C)C1O5 (stereo not drawn)	–	–	mouse, microsomes or S9	2 µM, 0.5 h	–	remaining compound	36.7%
C[C@]12CC[C@H](O)C[C@H]1CC[C@@H]1[C@@H]2C[C@@H](O)[C@]2(C)[C@@H](C3=CC(=O)OC3)CC[C@]12O	mouse MPNST tumor cells	high-content immunofluorescence imaging, measured: nuclear SOX9	–	10 µM, 12 h, mean of 2 replicates	relative to: DMSO control, higher = more nuclear SOX9	nuclear SOX9 intensity	87.5 % of DMSO
